Results of several laboratories.
Protocols differ between the studies behind these lines.
Organism: Pseudomonas aeruginosa

| Compound | assay | test system | conditions | scale | MIC |
| --- | --- | --- | --- | --- | --- |
| CC1(C)SC2C(NC(=O)C(NC(=O)C3=C(O)C(Cc4ccsc4)NC3=O)c3ccccc3)C(=O)N2C1C(=O)O (centres unmarked) |  | pvdA mutant |  |  | 50 µg/mL |
| CC[C@H](C)CCCCC(=O)N[C@@H](CCN)C(=O)N[C@H](C(=O)N[C@@H](CCN)C(=O)N[C@H]1CCNC(=O)[C@H]([C@@H](C)O)NC(=O)[C@H](CCN)NC(=O)[C@H](CCN)NC(=O)[C@H](CC(C)C)NC(=O)[C@@H](Cc2ccccc2)NC(=O)[C@H](CCN)NC1=O)[C@@H](C)O |  | ATCC 27853 | 24 h |  | < 1 µM |
| CC[C@H](C)[C@H](NC(=O)CNC(=O)[C@H](CC(=O)O)NC(=O)[C@H](CCCNC(=N)N)NC(=O)[C@@H](NC(=O)[C@H](CC(N)=O)NC(=O)[C@H](CCC(=O)O)NC(=O)CNC(=O)[C@@H](NC(=O)[C@H](CCCCN)NC(=O)[C@H](CCC(=O)O)NC(=O)[C@@H](NC(=O)[C@H](CCCCN)NC(=O)[C@H](CCCCN)NC(=O)[C@H](Cc1ccccc1)NC(=O)[C@@H](NC(=O)[C@H](CCCCN)NC(=O)[C@H](Cc1c[nH]c2ccccc12)NC(=O)[C@@H](N)CCCNC(=N)N)[C@@H](C)CC)[C@@H](C)CC)C(C)C)C(C)C)C(=O)N[C@H](C(=O)N[C@@H](CCCCN)C(=O)N[C@@H](C)C(=O)NCC(=O)N1CCC[C@H]1C(=O)N[C@@H](C)C(=O)N[C@H](C(=O)N[C@@H](C)C(=O)N[C@H](C(=O)N[C@H](C(=O)NCC(=O)N[C@@H](CCC(N)=O)C(=O)N[C@@H](C)C(=O)N[C@@H](C)C(=O)N[C@H](C(=O)N[C@H](C(=O)N[C@H](C(=O)N[C@@H](CCCCN)C(N)=O)C(C)C)C(C)C)[C@@H](C)O)C(C)C)C(C)C)C(C)C)[C@@H](C)CC |  | KCCM 11328, Mueller-Hinton broth | 16 h, 37 °C | growth inhibition over 99% | 32 µM |
| O=[N+]([O-])[O-].O=[N+]([O-])[O-].O=[N+]([O-])[O-].[Ga+3] | broth dilution | PAO1 | 22 to 24 h, 37 °C |  | 2 µg/mL |
| CC[C@@H](C)[C@@H](N)C(=O)N[C@@H](C(=O)N[C@H](Cc1ccc(O)cc1)C(=O)N[C@@H](C(=O)N[C@H](CCN)C(=O)N[C@H](CC(C)C)C(=O)N[C@H](CO)C(=O)N[C@H](CCN)C(=O)N[C@@H](C(=O)N[C@H](CCN)C(=O)N[C@H](Cc1c[nH]cn1)C(=O)N[C@H](CCN)C(=O)N[C@H](C)C(=O)N[C@H](CCN)C(=O)N[C@H](CCN)C(N)=O)[C@H](C)CC)[C@H](C)CC)[C@H](C)CC | broth microdilution | CDC 0231, Mueller-Hinton broth |  |  | 8 µg/mL |
| CC[C@H](C)[C@H](NC(=O)[C@H](CC(C)C)NC(=O)[C@H](CCCCN)NC(=O)[C@H](CCCCN)NC(=O)[C@H](CCCCN)NC(=O)[C@H](CCCCN)NC(=O)[C@H](CC(C)C)NC(=O)[C@@H](NC(=O)[C@@H](NC(=O)[C@@H](NC(=O)[C@H](CC(C)C)NC(=O)[C@H](CCCNC(=N)N)NC(=O)[C@H](CO)NC(=O)[C@@H](N)CO)C(C)C)[C@@H](C)CC)[C@@H](C)CC)C(=O)N[C@@H](CO)C(=O)N[C@@H](CCCCN)C(=O)N[C@@H](CCCCN)C(=O)N[C@@H](CCCCN)C(=O)N[C@@H](CCCCN)C(N)=O | broth microdilution | ATCC 27853 | highest value reported |  | 128 µM |
| CC1(C)SC2C(NC(=O)C(NC(=O)C3=C(O)C(Cc4ccc([N+](=O)[O-])cc4)NC3=O)c3ccccc3)C(=O)N2C1C(=O)O (centres unmarked) |  | pvdS mutant |  |  | 25 µg/mL |
| CC(C)[C@H](NC(=O)[C@H](C)N)C(=O)N[C@@H](C)C(=O)N[C@H](C(=O)N[C@H](C(=O)NCC(=O)N[C@@H](CCC(N)=O)C(=O)N[C@@H](C)C(=O)N[C@@H](C)C(=O)N[C@H](C(=O)N[C@H](C(=O)N[C@H](C(=O)N[C@@H](CCCCN)C(N)=O)C(C)C)C(C)C)[C@@H](C)O)C(C)C)C(C)C |  | KCCM 11328, Mueller-Hinton broth | 16 h, 37 °C | growth inhibition over 99% | > 64 µM |
| CCCCCCCC(=O)N[C@@H](CCN)C(=O)N[C@H](C(=O)N[C@@H](CCN)C(=O)N[C@H]1CCNC(=O)[C@H]([C@@H](C)O)NC(=O)[C@H](CCN)NC(=O)[C@H](CCN)NC(=O)[C@H](Cc2ccccc2)NC(=O)[C@@H](CCc2ccccc2)NC(=O)[C@H](CCN)NC1=O)[C@@H](C)O | broth microdilution | colistin-resistant isolates |  |  | 0.25 to 0.5 µg/mL |
| CC(C)(C)OCC1NC(=O)C(C(=O)NC(C(=O)NC2C(=O)N3C2SC(C)(C)C3C(=O)O)c2ccccc2)=C1O (centres unmarked) |  | pvcA mutant |  |  | 25 µg/mL |
| CC[C@H](C)[C@H](NC(=O)[C@H](CC(C)C)NC(=O)[C@H](CCCNC(=N)N)NC(=O)[C@@H](N)CCCNC(=N)N)C(=O)N[C@@H](CCCNC(=N)N)C(=O)N[C@@H](CCCCN)C(=O)N[C@@H](CC(C)C)C(=O)N[C@@H](CCCCN)C(=O)NCC(=O)N[C@@H](CC(C)C)C(=O)N[C@@H](CCCCN)C(=O)N[C@@H](CCCCN)C(=O)N[C@@H](Cc1ccc(O)cc1)C(=O)N[C@@H](CC(C)C)C(=O)N[C@@H](Cc1ccc(O)cc1)C(=O)N[C@@H](Cc1ccccc1)C(=O)N[C@@H](CCCCN)C(=O)N[C@@H](CC(C)C)C(=O)N[C@@H](CCC(N)=O)C(=O)N[C@@H](CC(C)C)C(=O)N[C@@H](CC(C)C)C(=O)N[C@@H](CCCCN)C(=O)N[C@@H](CCCCN)C(N)=O |  | KCTC 1637, Mueller-Hinton broth | 24 h |  | 4 µM |
| CC[C@H](C)[C@H](NC(=O)[C@H](Cc1ccc(O)cc1)NC(=O)[C@@H](NC(=O)[C@H](Cc1ccc(O)cc1)NC(=O)[C@@H]1CCCN1C(=O)[C@@H](NC(=O)[C@H](C)N)[C@@H](C)CC)[C@@H](C)CC)C(=O)N[C@@H](Cc1c[nH]c2ccccc12)C(=O)N[C@@H](CCCNC(=N)N)C(=O)N[C@@H](CC(C)C)C(=O)N[C@@H](CC(C)C)C(=O)N[C@@H](CCCNC(=N)N)C(=O)N[C@@H](CCCCN)C(=O)NCC(=O)O | broth microdilution | PAO1 | 18 h, 37 °C |  | > 15 µM |
| CC1(C)S[C@@H]2[C@H](NC(=O)C(C(=O)O)c3ccccc3)C(=O)N2[C@H]1C(=O)O (some centres unmarked) |  | pvcA mutant |  |  | 12.5 µg/mL |
| CC[C@H](C)[C@H](NC(=O)[C@H](CC(C)C)NC(=O)[C@H](CCCCN)NC(=O)[C@@H](NC(=O)[C@H](C)NC(=O)[C@H](CCC(=O)O)NC(=O)[C@H](Cc1c[nH]cn1)NC(=O)[C@@H](NC(=O)[C@H](CCCCN)NC(=O)[C@H](CCC(N)=O)NC(=O)[C@H](Cc1ccccc1)NC(=O)[C@@H](N)C(C)C)[C@@H](C)CC)[C@@H](C)CC)C(N)=O | broth microdilution | 4891 resistant | 18 h, 37 °C |  | > 128 µM |

A few entries again:
| Compound | assay | test system | conditions | scale | MIC |
| --- | --- | --- | --- | --- | --- |
| CCCCCCCC(=O)N[C@@H](CCN)C(=O)N[C@H](C(=O)N[C@@H](CCN)C(=O)N[C@H]1CCNC(=O)[C@H]([C@@H](C)O)NC(=O)[C@H](CCN)NC(=O)[C@H](CCN)NC(=O)[C@H](Cc2ccccc2)NC(=O)[C@@H](CCc2ccccc2)NC(=O)[C@H](CCN)NC1=O)[C@@H](C)O | broth microdilution | colistin-resistant isolates |  |  | 0.25 to 0.5 µg/mL |
| CC1(C)SC2C(NC(=O)C(NC(=O)C3=C(O)C(Cc4ccsc4)NC3=O)c3ccccc3)C(=O)N2C1C(=O)O (centres unmarked) |  | pvdA mutant |  |  | 50 µg/mL |
